Published values pooled from the literature.
Each line is one published result; not all experiments were run side by side. Values joined by “and” are separate records of one study, mostly repeats; a detail may differ. ± marks the error that the study gave.

Structure (SMILES) | tested on | assay | system | setting | how to read | measurement | value
O=C(CCCCCCC(=O)Nc1ccc(CC[18F])cc1)NO | – | – | athymic nu/nu male mice, LNCaP xenograft, muscle | intravenous, 0.5 h | – | tissue uptake | 1.9 ± 0.3 %ID/g
O=C(O)c1cc(O)c2c(c1)C(=O)c1cccc(O[C@@H]3O[C@H](CO)[C@@H](O)[C@H](O)[C@H]3O)c1C2=O | HK-2 co-cultured with HepaRG | MTT | – | 266.67 µM, 48 h | relative to: untreated control | cell viability | 9.96 ± 3.33%
CCOc1c([C@H](C)n2nc(C)c3c(N)ncnc32)cc(Cl)c(F)c1[C@@H]1CNC(=O)C1 | – | refers to: QTcF change above 60 ms | previously treated B-cell malignancy | oral, 45 mg once daily, overall population | relative to: baseline | ECG observations | 0%
CCn1cc(C(=O)N2CCOCC2)c(=O)c2cc(NC3Cc4ccccc4C3)cnc21 | – | – | human male, fed, plasma | oral, 900 mg twice daily, day 7, tablet, arithmetic mean | – | AUC(0-12h) | 47700 ng·h/mL
C=CCN1CC(=O)N2[C@@H](Cc3ccc(O)cc3F)C(=O)N(Cc3cccc(N4CC(N5CCN(CC)CC5)C4)n3)C[C@@H]2N1C(=O)NCc1ccccc1 | – | – | advanced solid tumour patients | oral, 45 mg twice daily, any grade, dose-escalation | – | treatment-related vomiting | 75%
COc1c(N2C[C@@H]3CCCN[C@@H]3C2)c(F)cc2c(=O)c(C(=O)O)cn(C3CC3)c12 | – | – | healthy volunteers | oral, 400 mg single dose, day 5, 0.50 h | – | QTcI change from baseline | -5.9 ms
COc1cc(Nc2ncc3c(n2)-c2ccc(Cl)cc2C(c2c(F)cccc2OC)=NC3)ccc1C(=O)O | – | – | patients | oral, dose not given, grade 2, any attribution, with: pembrolizumab | – | decreased white cell count incidence | 29%
CC[C@H](C)[C@H](NC(=O)[C@H](Cc1ccccc1)NC(=O)[C@H](CCC(=O)O)NC(=O)[C@H](CCCNC(=N)N)NC(=O)[C@H](C)NC(=O)[C@H](C)NC(=O)[C@H](CCC(N)=O)NC(=O)[C@H](CCC(=O)O)NC(=O)[C@H](CCC(=O)O)NC(=O)[C@H](CC(C)C)NC(=O)[C@H](Cc1ccc(O)cc1)NC(=O)[C@H](CO)NC(=O)[C@H](CO)NC(=O)[C@@H](NC(=O)[C@H](CC(=O)O)NC(=O)[C@H](CO)NC(=O)[C@@H](NC(=O)[C@H](Cc1ccccc1)NC(=O)[C@@H](NC(=O)CNC(=O)[C@H](CCC(=O)O)NC(=O)[C@H](C)NC(=O)CCc1c[nH]cn1)[C@@H](C)O)[C@@H](C)O)C(C)C)C(=O)N[C@@H](C)C(=O)N[C@@H](Cc1c[nH]c2ccccc12)C(=O)N[C@@H](CC(C)C)C(=O)N[C@H](C(=O)N[C@@H](CCCNC(=N)N)C(=O)NCC(=O)N[C@@H](CCCNC(=N)N)C(=O)N[C@@H](CCCCNC(=O)COCCOCCNC(=O)COCCOCCNC(=O)CC[C@H](NC(=O)CCCCCCCCCCCCCCCCC(=O)O)C(=O)O)C(=O)O)C(C)C | – | UPLC-MS | rat, plasma | subcutaneous, 20 nmol/kg | – | dose-normalised AUC | 110 kg·h/L
O=C(Nc1nc2cccc(-c3ccc(CN4CCS(=O)(=O)CC4)cc3)n2n1)C1CC1 | – | refers to: ankle fracture | human rheumatoid arthritis patients | oral, 300 mg once daily, 4 weeks, regardless of relatedness | – | treatment-emergent adverse events | 5%
Cc1cc(C(=O)NC(C)(C)COc2cccc3c2C(N)=NS(=O)(=O)N3)cc(C)n1 | – | – | Sprague-Dawley rat, male, plasma | oral, 30 mg/kg | – | dose-normalised AUC(0-last) | 1.11 ng·h/mL/mg/kg
CCOc1c([C@H](C)n2nc(C)c3c(N)ncnc32)cc(Cl)c(F)c1[C@@H]1CNC(=O)C1 | – | LC-MS/MS | Japanese patients, plasma | oral, dose not given, steady state, cycle 1 day 15 | – | Vz/F per body weight | 0.53 L/kg
N#Cc1ccc2c(c1)[C@H]1CCCN(C(=O)c3ccc4[nH]cnc4c3)[C@H]1C2 | – | – | human, female | 240 mg, day 7 | – | androstenedione level | 9 nmol/L
NC1(C(=O)N[C@@H](CCO)c2ccc(Cl)cc2)CCN(c2nc[nH]c3nccc2-3)CC1 | – | – | metastatic CRPC patients | 320 mg b.i.d., any grade, treatment-related, with: enzalutamide 160 mg daily | – | incidence of Blindness | 0%
CC(C)C[C@H](NC(=O)C[C@H](O)[C@H](CC(C)C)NC(=O)[C@H](Cc1c[nH]cn1)NC(=O)CNC(=O)[C@@H](NC(=O)[C@H](C)NC(=O)[C@H](Cc1c[nH]c2ccccc12)NC(=O)[C@H](CCC(N)=O)NC(=O)[C@@H](Cc1ccccc1)NC(=O)COCCOCCNC(=O)CCC(C(=O)O)N1CCN(CC(=O)O)CCN(CC(=O)O)CCN(CC(=O)O)CC1)C(C)C)C(N)=O (some centres unmarked) [lutetium-177 labelled] | – | – | female BALB/c nu/nu mice, bladder | intravenous, 100 pmol, 2 h, with: PA 300 µg | – | tissue uptake | 56 ± 29 %ID/g
C[C@@H](Nc1cc(F)cc(F)c1)c1cc(C(=O)N(C)C)cc2c(=O)cc(N3CCOCC3)oc12 | – | – | patients with advanced solid tumours | oral, 120 mg twice daily, monotherapy dose-finding, 2:5 schedule | – | share of patients with dose reduction | 0%
N[C@@H](C[18F])C(=O)O | – | radio-HPLC | saline | 3 h | – | radiochemical purity | > 98%
C=CC(=O)N1CCC(c2ccc(C(N)=O)c(-c3ccc(Oc4ccccc4)cc3)n2)CC1 | – | CTCAE 4.03 | patients with relapsed/refractory MCL | oral, dose not given, total | – | incidence of grade ≥3 TRAEs | 6.3%
Cl.[2H]C([2H])([2H])CC(=O)c1cnc(NC(=O)C2CC2)cc1Nc1cccc(-c2ncn(C([2H])([2H])[2H])n2)c1OC | – | – | human, fasted, multiple dose | oral, 10 mg once daily, tablet, day 1, geometric mean | – | AUC(0-tau) | 631 ng·h/mL
CNC(=O)c1cccc(-c2ccc([C@@H](O)[C@H]3O[C@H](CO)[C@@H](O)[C@H](O)[C@@H]3O)c(C)c2)c1 | – | – | Sprague-Dawley rat, male, plasma | intravenous, 3 mg/kg | – | Vss | 0.759 L/kg and 0.881 L/kg and 0.583 L/kg
COc1c(O[C@@H]2O[C@H](CO)[C@@H](O)[C@H](O)[C@H]2O)c(C)cc2c1C(=O)c1c(O)cccc1C2=O | HK-2 co-cultured with HepaRG | MTT | – | 266.67 µM, 48 h | relative to: untreated control | cell viability | 44.1 ± 2.22%

Repeated from above:
Structure (SMILES) | tested on | assay | system | setting | how to read | measurement | value
COc1cc(Nc2ncc3c(n2)-c2ccc(Cl)cc2C(c2c(F)cccc2OC)=NC3)ccc1C(=O)O | – | – | patients | oral, dose not given, grade 2, any attribution, with: pembrolizumab | – | decreased white cell count incidence | 29%
